Measured values pooled from the literature.
Each numbered part is a random draw from the data of one study; scales do not carry over between parts.

Sample 1
Target: Sal-like protein 4, full length isoform B (SALL4, Homo sapiens, UniProt Q9UJQ4-2, residues 1-616)
Method: universal PBM
Molecule type: double-stranded DNA, one strand shown
Medium: in vitro
Concentration: not given
Setting: 8-mer, flanks averaged, mean of replicates
Direction: higher = stronger binding
Measurement: E-score
Sequence = AAGTTCGA; result = 0.0422
Sequence = ATCTGCCG; result = -0.182
Sequence = CCGGTCGC; result = -0.312
Sequence = CGCCGATC; result = -0.161
Sequence = ATCCAATG; result = -0.00135
Sequence = CCAGCTTC; result = -0.149
Sequence = GAGCTCGC; result = -0.246
Sequence = ACCTTCAT; result = 0.0107
Sequence = AAAACCCC; result = -0.0924
Sequence = GTCCTAGA; result = -0.123
Sequence = GATTTCGC; result = 0.0409
Sequence = CATTTGAG; result = 0.11
Sequence = ACTGGTAG; result = -0.0864
Sequence = GGTCTGGA; result = -0.113
Sequence = CCTGCCTA; result = -0.0528
Sequence = CAACTCAA; result = 0.0963

Sample 2
Target: Ras GTPase-activating protein-binding protein 1, C-terminal RGG region (G3BP1, Homo sapiens, UniProt Q13283)
UniProt Q13283, sequence (whole entry, looked up): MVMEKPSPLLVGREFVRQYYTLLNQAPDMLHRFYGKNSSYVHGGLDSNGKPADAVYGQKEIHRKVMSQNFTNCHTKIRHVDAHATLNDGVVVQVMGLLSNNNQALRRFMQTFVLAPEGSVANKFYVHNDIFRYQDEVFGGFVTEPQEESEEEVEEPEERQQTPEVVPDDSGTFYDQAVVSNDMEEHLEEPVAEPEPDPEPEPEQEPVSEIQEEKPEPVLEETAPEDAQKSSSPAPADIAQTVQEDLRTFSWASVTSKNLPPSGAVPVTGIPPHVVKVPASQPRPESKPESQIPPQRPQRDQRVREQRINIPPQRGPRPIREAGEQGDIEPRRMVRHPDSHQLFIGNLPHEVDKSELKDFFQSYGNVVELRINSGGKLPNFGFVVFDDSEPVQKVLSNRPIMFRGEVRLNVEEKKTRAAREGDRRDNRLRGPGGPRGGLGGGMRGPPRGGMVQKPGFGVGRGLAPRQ
Method: RNA Bind-n-Seq
Molecule type: RNA
Medium: in vitro
Concentration: 1 µM
Setting: whole 134-nt RNA, ends assumed
Added: 150 mM KCl
Baseline: input library
Direction: higher = stronger binding
Measurement: log2 enrichment
Sequence = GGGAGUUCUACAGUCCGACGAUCAAGUCCUGUGCUACACAUCGUAUGUACCGAAUCGGUUUUUUUGGAAAGGUUUUUGGAAAGUAUUAUGUUACGCCGUUCGGAUCUGCACUUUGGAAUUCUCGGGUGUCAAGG; result = -2.16
Sequence = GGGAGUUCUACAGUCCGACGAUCUCCUCAAGUCCUGUGCUACACAUCGUAUGUACCGAAUCGGUGGUGGAAAGGAAAGUAUUAUGUUACGCCGUUCGGAUCUGCACUUCCAGCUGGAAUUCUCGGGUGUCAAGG; result = -0.612
Sequence = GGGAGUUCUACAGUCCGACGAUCUUUUCUCACGAUGCACCUCCCCCUGGCACUAAGAAAAAGCACUUAUCCAUUGAGCAGCUGAAUGCUCGUCGCAGGAAAGUAUGGCUCAGCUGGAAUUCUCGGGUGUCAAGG; result = -1.41
Sequence = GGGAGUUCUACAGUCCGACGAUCGUCCUGUGCUACACAUCGUAUGUACCGAAUCAAACCCCCAAAUUUUUAAAUUUUUAAAAAAGUAUUAUGUUACGCCGUUCGGAUCUGCACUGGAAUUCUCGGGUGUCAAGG; result = -0.609
Sequence = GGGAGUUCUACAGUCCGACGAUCACCAUGCAGGUGGGCAUCUUUGGGAAGUGGGGCAAGGGGGGGAUAGUGAGGGGGGUAACACUUUGGGAACAGGUGGUCCCAGGUCGUUUCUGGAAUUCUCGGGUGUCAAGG; result = 2.19
Sequence = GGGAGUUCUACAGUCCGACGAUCUCAAGUCCUGUGCUACACAUCGUAUGUACCGAAUCGGGAAAGGAAAGGAAAGGGGAAAGUAUUAUGUUACGCCGUUCGGAUCUGCACUUCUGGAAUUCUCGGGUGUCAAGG; result = -1.56
Sequence = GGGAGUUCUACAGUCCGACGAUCCUCAAGUCCUGUGCUACACAUCGUAUGUACCGAAUCGGAAGGGGAAGGGGAAGGAAAGUAUUAUGUUACGCCGUUCGGAUCUGCACUUCCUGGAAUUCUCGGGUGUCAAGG; result = -1.12
Sequence = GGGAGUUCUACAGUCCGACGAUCCCUGUGCUACACAUCGUAUGUACCGAAUCGGGGUUUUUUUGGGGUGGGGUUUUUUUGGGGAAAGUAUUAUGUUACGCCGUUCGGAUCUGCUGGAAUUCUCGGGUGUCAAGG; result = 0.569
Sequence = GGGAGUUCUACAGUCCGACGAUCCCUCAAGUCCUGUGCUACACAUCGUAUGUACCGAAUCGGAGGGGAGGGGAGGGAAAGUAUUAUGUUACGCCGUUCGGAUCUGCACUUCCAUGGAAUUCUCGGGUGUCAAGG; result = 1.1

Sample 3
Target: RNA binding protein fox-1 homolog 2, RRM domain, GST-SBP tag (RBFOX2, Homo sapiens, UniProt O43251-10, residues 100-194)
Method: RNA Bind-n-Seq
Molecule type: RNA
Medium: in vitro
Concentration: 365 nM
Setting: natural RNA segment, single round, ends assumed
Baseline: no-protein control
Direction: higher = stronger binding
Measurement: RBNS enrichment (R)
Construct (chain): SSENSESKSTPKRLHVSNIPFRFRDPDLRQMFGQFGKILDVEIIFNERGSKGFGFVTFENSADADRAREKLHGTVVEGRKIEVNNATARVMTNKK
Sequence = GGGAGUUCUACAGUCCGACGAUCCUUUAAAUAAAUAGCAUCGGACUUUCAUAUUUUUCUUUUUGACGUGGAGAAAACAUUUUCAUGCCUAAAAAUGUCUUUGAGAUAAUGCCAAUUCUGAUGUCCCUUACCUUUGGAAUUCUCGGGUGCCAA; result = 0.449
Sequence = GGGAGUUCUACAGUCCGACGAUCCCUGCAGGGACCUGAGCUUUGCUACCCAACCAGAUUCCUCAUAGAGAUUCCUAAUCACUAGUUUCUUGUAUUCAUAAACUCAGAGAUACAGAGGGCUUGGUUUGAAGUUGUGGAAUUCUCGGGUGCCAA; result = 0.52
Sequence = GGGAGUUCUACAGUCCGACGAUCCUGGGUUGCCGCGGCAGCAGUGGUCUGUUUGAUGCUGCCGUUUGCCGCUGCCGGCCCCUCCUCAGACUCCGCCUUUGGGAGCACACCUGCUUUGCCUUGCUGCCUGUGCAUGGAAUUCUCGGGUGCCAA; result = 4.94
Sequence = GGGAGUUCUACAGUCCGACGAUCACCAAGAUUUCCUCCCUUUCCUGGUGAGUGUUUCCAUUAUUCCGUUAAGGUUUAAUAUGCAUUCAGAUUACUUUUACUGAAUAGUACACCAUAAAGCUUUUGUUAUAUAUUGGAAUUCUCGGGUGCCAA; result = 0.415
Sequence = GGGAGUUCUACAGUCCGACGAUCUAGUUCUGUACAUGUGGCUGGAUUUAAAUAUCCUGUUUUUGAUACUAAUUUUGAAAGUCAUGUAACUUCUUUUGAUAUCUGGGCAAAAGUAACCAUAUGCUAUAAGCAUUUGGAAUUCUCGGGUGCCAA; result = 0.269
Sequence = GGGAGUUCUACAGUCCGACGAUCAUUCAAAGAAAGAGCAACUACUUUGGACCAAAAGCCCAUGGCCUGGGGAGCUGGGCAGGUAGAGCCCAAGCUCCAGGUGAGGCCUGGCCCUGGGCAGGGUCUGUGGCUGCUGGAAUUCUCGGGUGCCAA; result = 0.596
Sequence = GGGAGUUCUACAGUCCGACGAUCCAGAUUCUGGGUGGUCUAUGUGACCAUUUGUCUCGUAUCCAAAAACCCCGGGGCUAUUGGAACCCUUCCAACACUUUUUCCUUUGUCAUAGACAAGUUUAUAUAUAACUUUGGAAUUCUCGGGUGCCAA; result = 0.26
Sequence = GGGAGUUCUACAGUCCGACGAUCUGCCACAGGAAAACAGUGGUAGCUUAGAGAGGGCUCAGAUCCCUGGGUGCCAGUUUUUUAAUCACUAUAGCCCUUGGGAAGGCUUGGGCUAUUUACUGGGCGGUAAAAGGUGGAAUUCUCGGGUGCCAA; result = 0.328

Sample 4
Target: RING finger protein unkempt homolog, zinc fingers 1-6, GST-SBP tag (UNK, Homo sapiens, UniProt Q9C0B0, residues 30-357)
Method: RNA Bind-n-Seq
Molecule type: RNA
Medium: in vitro
Concentration: not given
Setting: RNA with constant flanks, human-mouse chimeric sites, ends assumed
Baseline: input RNA pool
Direction: higher = stronger binding
Measurement: bound/input enrichment
Construct (chain): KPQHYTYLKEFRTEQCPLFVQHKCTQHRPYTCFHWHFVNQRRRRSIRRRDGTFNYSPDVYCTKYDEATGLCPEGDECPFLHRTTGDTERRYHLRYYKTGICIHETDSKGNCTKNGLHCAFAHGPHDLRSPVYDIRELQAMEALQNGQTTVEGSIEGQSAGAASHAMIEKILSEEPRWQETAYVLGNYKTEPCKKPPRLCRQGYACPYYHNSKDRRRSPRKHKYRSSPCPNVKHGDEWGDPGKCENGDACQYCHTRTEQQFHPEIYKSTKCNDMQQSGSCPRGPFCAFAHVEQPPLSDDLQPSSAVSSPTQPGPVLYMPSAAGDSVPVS
Sequence = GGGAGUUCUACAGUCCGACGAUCAGAAAGCAAAACUUGGAACGAUUUAAGAAAGGAGACGUAAGAUUCUUGAUUUGCACAGAUGUAGCUGCUAGAGGAAUUGAUAUCCACGGCGUUCCUUAUGUGAUCAACGUCACCCUGCCUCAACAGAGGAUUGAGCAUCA; result = 0.221 ratio
Sequence = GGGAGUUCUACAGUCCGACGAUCUUUGUAUUUAUGCUAAGCACACGUGCUGGUGGUCUGGGCAUCAAUCUUGCAACUGCUGAUGUAGUAAUUUUAUAUGACUCAGAUUGGAAUCCGCAAGUAGAUCUUCAGGCUAUGGACCGUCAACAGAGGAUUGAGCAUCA; result = 0.291 ratio
Sequence = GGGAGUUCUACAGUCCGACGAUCGCACUUGGGAAUGUAAUAAGUGCCUUGGGGGACAAGAGCAAGAGAGCCACCCAUGUCCCUUACAGAGACUCUAAGCUGACAAGACUCUUGCAGGAUUCCCUUGGGGGUAACAGCCAAACCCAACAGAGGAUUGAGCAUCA; result = 0.114 ratio
Sequence = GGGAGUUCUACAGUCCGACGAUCGCAGGAUCUUCUAAGUACCAGUGGGACAUUAUGAAAUCCCUUGGGCUCUCUGAUGACGAGAUAGUAAAGUUUUCUGAAGCAGAGCACUGGCUUGAUUAUUUCCCGCCACUGGCCGUUCAGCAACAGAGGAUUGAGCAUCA; result = 0.163 ratio
Sequence = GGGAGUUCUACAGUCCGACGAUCCGCUGGCCCAAGCUGAUGGACUCUGAUGGCCUCCAUCUCUCAGGCACGUGUGCCUUCUCUUAGUUAUUGUUUUCGGGAUGUUAUGAAUCUCAGUACUGUGGUUUGAAAGCACCAGCUUUGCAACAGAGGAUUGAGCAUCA; result = 6.26 ratio
Sequence = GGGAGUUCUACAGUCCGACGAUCUUACCCGAGAACGAGGAUGAGCUGGAGAGCACCAAUAGGCGCUACACCAAGAGGGACUGCAGCACUUUCCUCAGAACUAGUGAGACGGGCAUCGUGGACCAGGUCAUGGUCACUCUCAACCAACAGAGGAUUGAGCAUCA; result = 0.134 ratio
Sequence = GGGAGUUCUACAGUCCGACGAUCUCAAGGGGGCACUGCAGAGCCAUGCCUUUCCUUGACAUACAGAAAAAGCUGGGCAUCAACAUAGAUCGGCACUUUAUGUUCCUAAGCGCAGAACAGCCCUAUAAGAACGCCGCUCGGUGCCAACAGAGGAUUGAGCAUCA; result = 0.0827 ratio
Sequence = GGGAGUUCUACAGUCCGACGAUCAUGGAGAAGGAUUCUCUGCCCCGCUUUGUGCGCUCUGAAUUUUAUAAGGAGUUAAUCAAGUAGUCAUCUGGUCAGGCUUCCAAAAGUUGCCCUGUGAUAUUUCCUCCAUCCUUUGUAGCACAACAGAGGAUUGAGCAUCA; result = 0.237 ratio
